Published values pooled from the literature.
Lines come from different studies, so protocols differ. Numbers after ± are the reported error.
CYP2C9: Cytochrome P450 2C9 (CYP2C9, Homo sapiens, UniProt P11712)
Sequence of UniProt P11712 (whole entry, looked up): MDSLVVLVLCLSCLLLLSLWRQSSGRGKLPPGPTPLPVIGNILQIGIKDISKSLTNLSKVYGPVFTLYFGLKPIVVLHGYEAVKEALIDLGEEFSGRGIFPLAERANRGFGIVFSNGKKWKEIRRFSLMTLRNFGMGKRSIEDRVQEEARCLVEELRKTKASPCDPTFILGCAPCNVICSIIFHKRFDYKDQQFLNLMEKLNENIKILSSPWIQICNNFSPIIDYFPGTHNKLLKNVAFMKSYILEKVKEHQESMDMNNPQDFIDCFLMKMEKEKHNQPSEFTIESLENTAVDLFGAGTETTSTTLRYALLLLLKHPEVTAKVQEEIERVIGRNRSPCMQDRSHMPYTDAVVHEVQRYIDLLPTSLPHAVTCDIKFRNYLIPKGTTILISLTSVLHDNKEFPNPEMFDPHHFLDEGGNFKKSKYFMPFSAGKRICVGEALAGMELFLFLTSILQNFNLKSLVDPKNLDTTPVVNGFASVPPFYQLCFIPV
SLCO1B3: Solute carrier organic anion transporter family member 1B3 (SLCO1B3, Homo sapiens, UniProt Q9NPD5)
Sequence of UniProt Q9NPD5 (whole entry, unmodified, looked up): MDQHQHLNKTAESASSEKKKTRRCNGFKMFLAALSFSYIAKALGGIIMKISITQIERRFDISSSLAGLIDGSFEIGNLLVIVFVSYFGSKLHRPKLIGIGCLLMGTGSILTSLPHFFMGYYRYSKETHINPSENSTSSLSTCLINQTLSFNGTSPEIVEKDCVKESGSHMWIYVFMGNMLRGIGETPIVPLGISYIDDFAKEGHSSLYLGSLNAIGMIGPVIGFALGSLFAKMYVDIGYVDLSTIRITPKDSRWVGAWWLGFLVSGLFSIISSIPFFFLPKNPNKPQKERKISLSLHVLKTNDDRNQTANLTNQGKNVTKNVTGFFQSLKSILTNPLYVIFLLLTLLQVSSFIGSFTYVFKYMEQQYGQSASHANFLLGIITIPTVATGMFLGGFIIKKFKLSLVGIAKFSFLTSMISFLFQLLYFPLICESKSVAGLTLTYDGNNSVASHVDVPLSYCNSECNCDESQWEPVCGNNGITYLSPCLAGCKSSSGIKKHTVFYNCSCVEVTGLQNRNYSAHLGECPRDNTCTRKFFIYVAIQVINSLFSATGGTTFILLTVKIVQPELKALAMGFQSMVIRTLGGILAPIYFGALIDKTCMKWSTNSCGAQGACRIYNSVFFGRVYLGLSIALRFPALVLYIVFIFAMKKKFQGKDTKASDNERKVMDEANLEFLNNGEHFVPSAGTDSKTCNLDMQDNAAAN
SLCO1B3 M233I: Solute carrier organic anion transporter family member 1B3 (SLCO1B3, Homo sapiens, UniProt Q9NPD5, M233I)
CYP2D6: Cytochrome P450 2D6 (CYP2D6, Homo sapiens, UniProt P10635)
Sequence of UniProt P10635 (whole entry, looked up): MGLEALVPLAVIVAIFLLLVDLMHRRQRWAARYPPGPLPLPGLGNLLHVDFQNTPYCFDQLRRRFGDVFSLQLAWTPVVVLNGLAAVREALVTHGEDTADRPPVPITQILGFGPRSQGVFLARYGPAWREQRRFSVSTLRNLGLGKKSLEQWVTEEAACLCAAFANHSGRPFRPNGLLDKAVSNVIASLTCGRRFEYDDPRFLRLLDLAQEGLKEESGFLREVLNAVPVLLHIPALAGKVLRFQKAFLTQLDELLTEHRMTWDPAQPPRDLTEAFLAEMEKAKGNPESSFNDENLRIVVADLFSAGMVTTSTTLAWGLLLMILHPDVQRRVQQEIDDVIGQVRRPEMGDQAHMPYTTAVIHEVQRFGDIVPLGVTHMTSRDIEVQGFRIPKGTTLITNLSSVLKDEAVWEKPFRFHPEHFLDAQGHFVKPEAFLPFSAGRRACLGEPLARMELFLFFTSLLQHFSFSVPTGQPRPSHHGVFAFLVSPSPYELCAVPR
NR1I2: Nuclear receptor subfamily 1 group I member 2 (NR1I2, Homo sapiens, UniProt O75469)
Sequence of UniProt O75469 (whole entry, looked up): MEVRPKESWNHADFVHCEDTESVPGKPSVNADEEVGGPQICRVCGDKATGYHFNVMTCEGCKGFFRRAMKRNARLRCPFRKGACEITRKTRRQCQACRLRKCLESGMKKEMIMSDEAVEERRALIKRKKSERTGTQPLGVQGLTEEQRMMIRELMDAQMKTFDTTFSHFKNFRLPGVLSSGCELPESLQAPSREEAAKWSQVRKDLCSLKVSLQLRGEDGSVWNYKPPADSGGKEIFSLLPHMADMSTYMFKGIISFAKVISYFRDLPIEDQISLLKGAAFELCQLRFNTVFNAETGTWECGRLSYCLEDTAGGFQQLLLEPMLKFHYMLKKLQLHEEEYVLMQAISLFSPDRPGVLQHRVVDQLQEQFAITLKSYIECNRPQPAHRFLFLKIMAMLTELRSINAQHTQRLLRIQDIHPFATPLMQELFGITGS
Sequence of UniProt P21447 (whole entry, looked up): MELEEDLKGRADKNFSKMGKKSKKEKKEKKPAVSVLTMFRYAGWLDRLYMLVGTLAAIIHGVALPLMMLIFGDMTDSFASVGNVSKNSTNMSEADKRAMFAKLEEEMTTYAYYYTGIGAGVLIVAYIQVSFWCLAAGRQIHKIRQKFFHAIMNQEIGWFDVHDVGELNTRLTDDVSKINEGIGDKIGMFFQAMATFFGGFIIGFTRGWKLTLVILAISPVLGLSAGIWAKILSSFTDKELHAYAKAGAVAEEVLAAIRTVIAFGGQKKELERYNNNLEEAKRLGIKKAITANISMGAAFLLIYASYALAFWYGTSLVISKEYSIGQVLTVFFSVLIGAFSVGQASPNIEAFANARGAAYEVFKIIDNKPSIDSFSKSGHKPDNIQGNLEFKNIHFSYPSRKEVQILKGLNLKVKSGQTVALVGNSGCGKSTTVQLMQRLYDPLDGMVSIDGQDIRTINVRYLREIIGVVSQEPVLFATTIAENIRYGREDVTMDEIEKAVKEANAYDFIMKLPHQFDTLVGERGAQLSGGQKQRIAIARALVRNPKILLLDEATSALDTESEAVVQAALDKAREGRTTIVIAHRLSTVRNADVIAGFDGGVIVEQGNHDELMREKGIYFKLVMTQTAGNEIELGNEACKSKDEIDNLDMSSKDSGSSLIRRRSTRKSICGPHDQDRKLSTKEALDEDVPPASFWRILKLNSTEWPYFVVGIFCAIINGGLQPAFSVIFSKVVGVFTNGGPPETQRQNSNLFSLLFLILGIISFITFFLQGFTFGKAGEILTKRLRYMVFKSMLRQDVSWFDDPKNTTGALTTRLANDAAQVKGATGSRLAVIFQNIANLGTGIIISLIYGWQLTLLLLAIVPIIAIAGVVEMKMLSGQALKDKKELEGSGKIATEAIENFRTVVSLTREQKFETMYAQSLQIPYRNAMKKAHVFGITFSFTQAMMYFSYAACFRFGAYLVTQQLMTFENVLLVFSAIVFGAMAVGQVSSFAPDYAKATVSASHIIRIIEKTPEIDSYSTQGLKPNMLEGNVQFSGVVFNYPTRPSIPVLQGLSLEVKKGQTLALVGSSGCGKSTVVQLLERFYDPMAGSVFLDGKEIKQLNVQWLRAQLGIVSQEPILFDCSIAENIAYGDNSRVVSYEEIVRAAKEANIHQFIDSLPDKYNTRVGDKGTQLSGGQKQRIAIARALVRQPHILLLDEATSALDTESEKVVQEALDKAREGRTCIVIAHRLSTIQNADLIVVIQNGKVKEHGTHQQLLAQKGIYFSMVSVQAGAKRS
Sequence of UniProt P08183 (whole entry, looked up): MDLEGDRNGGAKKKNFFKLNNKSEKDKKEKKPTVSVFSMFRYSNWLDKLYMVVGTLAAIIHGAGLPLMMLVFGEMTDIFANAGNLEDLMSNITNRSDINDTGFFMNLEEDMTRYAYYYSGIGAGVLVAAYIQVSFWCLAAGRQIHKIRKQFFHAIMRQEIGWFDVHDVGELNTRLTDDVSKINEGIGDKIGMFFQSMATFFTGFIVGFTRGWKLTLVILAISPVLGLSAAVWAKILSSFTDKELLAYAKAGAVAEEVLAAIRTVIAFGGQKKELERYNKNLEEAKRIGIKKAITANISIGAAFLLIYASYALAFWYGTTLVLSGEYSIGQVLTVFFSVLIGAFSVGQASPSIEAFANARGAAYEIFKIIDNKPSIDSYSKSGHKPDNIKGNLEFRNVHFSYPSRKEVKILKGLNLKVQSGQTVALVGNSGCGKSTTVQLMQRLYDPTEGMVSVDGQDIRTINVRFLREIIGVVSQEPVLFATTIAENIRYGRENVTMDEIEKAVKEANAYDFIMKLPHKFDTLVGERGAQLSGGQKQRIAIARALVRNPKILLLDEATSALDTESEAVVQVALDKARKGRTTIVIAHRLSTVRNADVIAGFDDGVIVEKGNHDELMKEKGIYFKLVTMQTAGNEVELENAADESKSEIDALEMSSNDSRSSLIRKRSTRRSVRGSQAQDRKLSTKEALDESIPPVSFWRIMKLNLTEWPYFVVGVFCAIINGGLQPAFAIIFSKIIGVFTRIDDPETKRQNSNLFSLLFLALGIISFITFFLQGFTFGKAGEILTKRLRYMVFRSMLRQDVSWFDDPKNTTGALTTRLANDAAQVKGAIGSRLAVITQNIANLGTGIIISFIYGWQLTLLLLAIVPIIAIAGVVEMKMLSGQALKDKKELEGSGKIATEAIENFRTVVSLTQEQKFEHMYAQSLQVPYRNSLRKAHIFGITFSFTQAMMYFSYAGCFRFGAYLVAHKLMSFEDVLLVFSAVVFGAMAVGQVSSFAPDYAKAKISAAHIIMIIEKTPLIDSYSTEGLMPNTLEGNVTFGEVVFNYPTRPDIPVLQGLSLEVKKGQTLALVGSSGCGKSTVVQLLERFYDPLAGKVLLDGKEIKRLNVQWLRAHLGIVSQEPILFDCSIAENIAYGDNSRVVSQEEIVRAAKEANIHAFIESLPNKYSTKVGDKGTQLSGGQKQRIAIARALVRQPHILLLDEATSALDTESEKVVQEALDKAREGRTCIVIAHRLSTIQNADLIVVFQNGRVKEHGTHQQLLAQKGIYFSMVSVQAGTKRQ
Sequence of UniProt Q8VCR2 (whole entry, looked up): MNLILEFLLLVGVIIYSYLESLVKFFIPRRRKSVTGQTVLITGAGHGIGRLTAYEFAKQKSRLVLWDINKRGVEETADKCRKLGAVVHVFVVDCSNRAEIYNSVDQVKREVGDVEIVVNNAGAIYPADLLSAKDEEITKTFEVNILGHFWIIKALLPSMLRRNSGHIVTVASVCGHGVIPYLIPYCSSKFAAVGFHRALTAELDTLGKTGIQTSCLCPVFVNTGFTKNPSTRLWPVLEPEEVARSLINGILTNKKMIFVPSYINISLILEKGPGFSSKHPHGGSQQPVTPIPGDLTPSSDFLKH

Compound | target or system | test | test system | setting | how to read | endpoint | value
N#C[C@H](C[C@@H]1CCCNC1=O)NC(=O)[C@H](CC1CC1)NC(=O)c1cc2cccc(Cl)c2[nH]1 | CYP2C9 | NADPH metabolic stability |  | 2 µM, pH 7.4, 100 pmol/mL enzyme |  | intrinsic clearance | 0.06 µL/min/pmol
NCc1cc2c(cc1F)C(=O)N(C1CCC(=O)NC1=O)C2 (stereo not drawn) | Amine oxidase [flavin-containing] B (MAOB, Homo sapiens, UniProt P27338) | substrate, LC-MS/MS | recombinant enzyme | 10 µM, 20 h, pH 7.4 |  | concentration | 3.6 µM
CC(C)Nc1ccnc(Nc2cccc(-c3ccncc3)c2)n1 | P-glycoprotein (human MDR1) |  | MDR1-MDCKII | 10 µM, 1 h, pH 7.4 |  | Papp (A-B) | 75.2 ± 36.2 ×10⁻⁶ cm/s
C[C@]12C[C@H](O)[C@H]3[C@@H](CCC4=CC(=O)CC[C@@]43C)[C@@H]1CC[C@@H]2C(=O)CO | Cytochrome P450 11B1, mitochondrial (CYP11B1, Homo sapiens, UniProt P15538) | substrate |  | 100 µM, phospholipid vesicles |  | 18-hydroxylation coupling efficiency | 22.6 ± 5.6%
[11CH3]Oc1cccc(CCc2cc(O)c(=O)[nH]n2)c1 | ATP-dependent translocase ABCB1 (Abcb1a, Mus musculus, UniProt P21447) |  | CD-1 mice, brain | 30 min, added: cyclosporine | baseline: without cyclosporine | increase in brain uptake | no effect
CNC(=O)c1cc(Oc2ccc(NC(=O)Nc3ccc(Cl)c(C(F)(F)F)c3)c(F)c2)ccn1 | SLCO1B3 | uptake, substrate | HEK293-A stably expressing SLCO1B3 | 2 min |  | Vmax | 2380 ± 1320 pmol/mg protein/min
Cc1oc2ccccc2c1Cc1cc(I)c(OCC(=O)O)c(I)c1 | Voltage-gated inwardly rectifying potassium channel KCNH2 (KCNH2, Homo sapiens, UniProt Q12809) | ion current, activator, whole-cell patch clamp | HEK293 expressing hERG1 | K+ 4 mM, at -20 mV | baseline: untreated | maximal current increase | 470%
CC(C)n1c(/C=C/C(O)CC(O)CC(=O)O)c(-c2ccc(F)cc2)c2ccccc21 (stereo not drawn) | SLCO1B3 M233I | uptake, substrate | HEK293-A stably expressing SLCO1B3 | 2 min |  | Vmax | 722 ± 306 pmol/mg protein/min
C=CC(=O)Nc1cc(Nc2nccc(-c3cn(C)c4ccccc34)n2)c(OCC(F)(F)F)nc1N(C)CCN(C)C | CYP2D6 | substrate depletion, substrate | recombinant human enzymes |  |  | fraction metabolised | < 1%
O=C(O)COc1cccc(-c2nc(Nc3ccc4[nH]ncc4c3)c3ccccc3n2)c1 | UDP-glucuronosyltransferase 1A6 (UGT1A6, Homo sapiens, UniProt P19224) | enzyme activity, inhibitor | recombinant microsomes | added: diclofenac |  | IC50 | 94.7 µM
CC(C)CCCCC(=O)N[C@@H](CCN)C(=O)N[C@H](C(=O)N[C@@H](CCN)C(=O)N[C@H]1CCNC(=O)[C@H]([C@@H](C)O)NC(=O)[C@H](CCN)NC(=O)[C@H](CCN)NC(=O)[C@H](CC(C)C)NC(=O)[C@@H](Cc2ccccc2)NC(=O)[C@H](CCN)NC1=O)[C@@H](C)O | plasma proteins | equilibrium dialysis | human, mild renal insufficiency, plasma | intravenous, 0.75 mg/kg, 4 h, 37 °C |  | fu | 10.9%
CC(C)Nc1ccnc(Nc2ccccc2-c2ccccc2)n1 | P-glycoprotein (human MDR1) |  | MDR1-MDCKII | 10 µM, 1 h, pH 7.4 |  | Papp (B-A) | 15 ± 5.19 ×10⁻⁶ cm/s
C=C[C@@H]1C[C@]1(NC(=O)[C@@H]1C[C@@H]2CN1C(=O)[C@H](C(C)(C)C)NC(=O)O[C@@H]1C[C@H]1CCCCCc1nc3ccc(OC)cc3nc1O2)C(=O)NS(=O)(=O)C1CC1 | SLCO1B3 | uptake, substrate | HEK293 transfected | relative activity factor scaled | baseline: mock cells | Vmax | 3.08 pmol/min/mg protein
C[C@H](O)c1cnc(NS(=O)(=O)c2ccc(C(F)(F)F)c(Cl)c2)nc1 | 17-beta-hydroxysteroid dehydrogenase 13 (Mus musculus, UniProt Q8VCR2) | substrate | mouse, wild type vs knockout |  |  | fraction metabolized | < 0.5
C[C@]12CC[C@@H]3c4ccc(OS(=O)(=O)O)cc4CC[C@H]3[C@@H]1CCC2=O | Solute carrier family 22 member 11 (SLC22A11, Homo sapiens, UniProt Q9NSA0) |  | HEK293 control cells |  |  | uptake velocity | 0.9 ± 0.1 pmol/min/mg protein
CC(C)Nc1ccnc(Nc2cccc(-c3cccnc3)c2)n1 | P-glycoprotein (human MDR1) |  | MDR1-MDCKII | 10 µM, 1 h, pH 7.4 |  | Papp (B-A) | 61.6 ± 26.1 ×10⁻⁶ cm/s
CC(C)c1nc(N(C)S(C)(=O)=O)nc(-c2ccc(F)cc2)c1/C=C/[C@@H](O)C[C@@H](O)CC(=O)O | SLCO1B3 M233I | substrate, uptake | HEK293-A stably expressing SLCO1B3 | 2 min |  | Km | 24.6 µM
CN(C(=O)n1cnc(-c2ccc[n+]([O-])c2)c1)C1CCCCC1 | CYP2D6 | inhibitor | pooled human liver microsomes | concentration not given, 30 min pre-incubation, without cofactor |  | time-dependent inhibition | no effect

Compound | target or system | test | test system | setting | how to read | endpoint | value
COc1cccc(-c2cccc(Nc3nccc(NC(C)C)n3)c2)c1 | P-glycoprotein (human MDR1) |  | MDR1-MDCKII | 10 µM, 1 h, pH 7.4 |  | Papp (B-A) | 0.79 ± 0.235 ×10⁻⁶ cm/s
CC[C@H](C)CCCCC(=O)N[C@@H](CCN)C(=O)N[C@H](C(=O)N[C@@H](CCN)C(=O)N[C@H]1CCNC(=O)[C@H]([C@@H](C)O)NC(=O)[C@H](CCN)NC(=O)[C@H](CCN)NC(=O)[C@H](CC(C)C)NC(=O)[C@@H](Cc2ccccc2)NC(=O)[C@H](CCN)NC1=O)[C@@H](C)O | plasma proteins | equilibrium dialysis | human, long-term IHD, human plasma | intravenous, 0.75 mg/kg, 4 h, 37 °C, mean |  | unbound fraction | 4.6%
CNC(=O)c1cc(Oc2ccc(NC(=O)Nc3ccc(Cl)c(C(F)(F)F)c3)cc2)ccn1 | Solute carrier organic anion transporter family member 1B3 (SLCO1B3, Homo sapiens, UniProt Q9NPD5, S112A) | uptake, substrate | HEK293-A stably expressing SLCO1B3 | 2 min |  | Vmax | 113 ± 47.4 pmol/mg protein/min
O=C(Nc1c2c(cc3c1CCC3)CCC2)NS(=O)(=O)/C=C/c1nccs1 | CYP2D6 |  | human liver microsomes | 10 µM, pH 7.4, added: dextromethorphan |  | inhibition | < 0%
CCc1ccccc1-c1cccc2[nH]c(C(=O)NC[C@@H](N)C(=O)O)cc12 | P-glycoprotein (human MDR1) |  | MDCK canine MDR1 knock-out, human MDR1 transfected | 3 µM, pH 7.4 |  | apparent permeability | < 10 ×10⁻⁶ cm/s
CC[C@H]1[C@@H](O)[C@@H]2[C@H](CC[C@]3(C)[C@@H]([C@H](C)CCNC(=O)NS(=O)(=O)c4ccc(C(C)(C)C)cc4)CC[C@@H]23)[C@@]2(C)CC[C@@H](O)C[C@@H]12 | ATP-dependent translocase ABCB1 (ABCB1, Homo sapiens, UniProt P08183) | substrate | human, plasma | dose not given, alone |  | AUC(0-inf) geometric mean | 353 ng·h/mL
CCc1ccccc1-c1ccc(C(=O)NC[C@@H](N)C(=O)O)s1 | P-glycoprotein (human MDR1) |  | MDCK canine MDR1 knock-out, human MDR1 transfected | 3 µM, pH 7.4 |  | apparent permeability | < 10 ×10⁻⁶ cm/s
NCCS |  | binding, MIDAS equilibrium dialysis LC-MS | A2AR-BRIL thermostabilized | concentration not given | baseline: no-protein control | log2 fold change | -0.116
CC(C)Nc1ccnc(Nc2cccc(-c3ccccc3)c2)n1 | P-glycoprotein (human MDR1) |  | MDR1-MDCKII | 10 µM, 1 h, pH 7.4 |  | Papp (A-B) | 0.619 ± 0.064 ×10⁻⁶ cm/s
COc1cc(OCCCCCCCC(=O)N[C@H](C(=O)N2C[C@H](O)C[C@H]2C(=O)NCc2ccc(-c3scnc3C)cc2)C(C)(C)C)c(C)cc1-n1nnc(S(=O)(=O)c2ccc(C(C)(C)C)cc2)c1C | NR1I2 | degrader, HiBiT | SNU-C4 HiBiT-PXR knock-in cells | 24 h |  | degradation | inactive
CC(=O)N[C@H]1[C@@H](OP(=O)(O)OP(=O)(O)OC[C@H]2O[C@@H](n3ccc(=O)[nH]c3=O)[C@H](O)[C@@H]2O)O[C@H](CO)[C@@H](O)[C@@H]1O |  | binding, MIDAS equilibrium dialysis LC-MS | A2AR-BRIL thermostabilized | concentration not given | baseline: no-protein control | log2 fold change | -0.191
c1ccc(-c2cccc(Nc3nccc(NC4CCCCC4)n3)c2)nc1 | P-glycoprotein (human MDR1) |  | MDR1-MDCKII | 10 µM, 1 h, pH 7.4 | baseline: B-A over A-B | efflux ratio | 1.18
CCc1cc(/C(C)=N/OCc2ccc(C3CCCCC3)c(C(F)(F)F)c2)ccc1CN1CC(C(=O)O)C1 | CYP2C9 | population PK | human, CYP2C9*1/*1, plasma |  |  | CYP2C9-mediated clearance | 2.47 L/h
CCN1CCN(c2cc(N3CCN(CC)CC3)nc(NCCNc3ccnc4cc(Cl)ccc34)n2)CC1 | NR1I2 | reporter gene, agonist, Gal4 hybrid reporter | HEK293T transiently transfected | 20 µM, 16 h, 0.1% DMSO | baseline: vehicle | activation | 1.55 ± 0.35 fold
COc1cccc(-c2cccc(Nc3nccc(NC4CCCCC4)n3)c2)c1 | P-glycoprotein (human MDR1) |  | MDR1-MDCKII | 10 µM, 1 h, pH 7.4 |  | Papp (A-B) | 0.016 ± 0.018 ×10⁻⁶ cm/s
Cc1cc(Nc2ncnc3ccc(NC4=NC(C)(CO)CO4)cc23)ccc1Oc1ccn2ncnc2c1 (stereo not drawn) | Cytochrome P450 3A4 (CYP3A4, Homo sapiens, UniProt P08684) |  | human, plasma | tucatinib, day 6, added: itraconazole |  | AUC(0-inf) (geometric mean) | 801 ng·h/mL
c1cncc(-c2cccc(Nc3nccc(NC4CCCCC4)n3)c2)c1 | P-glycoprotein (human MDR1) |  | MDR1-MDCKII | 10 µM, 1 h, pH 7.4 | baseline: B-A over A-B | efflux ratio | 1.02
COC(=O)c1cn(C)c2ccc(-c3cccnc3)cc12 | NR1I2 | reporter gene, agonist, Gal4 hybrid reporter | HEK293T transiently transfected | 10 µM, 16 h, 0.1% DMSO | baseline: vehicle | activation | 1.12 fold

For quick reference, copied from above:
Compound | target or system | test | test system | setting | how to read | endpoint | value
CC[C@H]1[C@@H](O)[C@@H]2[C@H](CC[C@]3(C)[C@@H]([C@H](C)CCNC(=O)NS(=O)(=O)c4ccc(C(C)(C)C)cc4)CC[C@@H]23)[C@@]2(C)CC[C@@H](O)C[C@@H]12 | ATP-dependent translocase ABCB1 (ABCB1, Homo sapiens, UniProt P08183) | substrate | human, plasma | dose not given, alone |  | AUC(0-inf) geometric mean | 353 ng·h/mL
CC(=O)N[C@H]1[C@@H](OP(=O)(O)OP(=O)(O)OC[C@H]2O[C@@H](n3ccc(=O)[nH]c3=O)[C@H](O)[C@@H]2O)O[C@H](CO)[C@@H](O)[C@@H]1O |  | binding, MIDAS equilibrium dialysis LC-MS | A2AR-BRIL thermostabilized | concentration not given | baseline: no-protein control | log2 fold change | -0.191
CCc1ccccc1-c1cccc2[nH]c(C(=O)NC[C@@H](N)C(=O)O)cc12 | P-glycoprotein (human MDR1) |  | MDCK canine MDR1 knock-out, human MDR1 transfected | 3 µM, pH 7.4 |  | apparent permeability | < 10 ×10⁻⁶ cm/s
